Experimental data collected from several papers.
Every numbered part comes from another study and shows a few of its results, in no order. Substitutions count along the parent as printed.

Study 1 — technique: protein binding microarray; molecule type: double-stranded DNA, one strand shown; sample: in vitro; concentration: not given; reference: not given; direction: higher = stronger binding; measurement: E-score
Target: Histone acetyltransferase KAT6A, winged helix 1, GST fusion (KAT6A, Homo sapiens, UniProt Q92794, residues 1-85)
Notes: 8-mer, flanks averaged, mean of 2 arrays, mostly near background
Construct (chain): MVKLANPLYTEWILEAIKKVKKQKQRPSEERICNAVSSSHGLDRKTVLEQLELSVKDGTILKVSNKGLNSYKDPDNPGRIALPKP
ACCACGTA: -0.227
CCGCGAGC: 0.388
ACATTTGG: -0.05
ATTAGTCC: 0.0385
TCACAGGA: -0.191
AAAGTGCC: -0.141
GACAGGGA: -0.125
AAAGTAAA: -0.231
TTACGCAA: 0.0762
ATTTCCTA: -0.208
AAAGTGGA: -0.224
ATCGAGCG: 0.262
AACCGAGT: -0.0174

Study 2 — target: CCND1, cyclin fold, Cln2 fusion (human); technique: yeast growth competition, sequencing; sample: yeast; notes: weak parent motif; reference: not given; direction: higher = stronger binding; measurement: normalised enrichment score
Starting sequence: E2F1 docking peptide (human); PPVKRRLDLETDH
QPVKRRLDLETDH [P1Q]: 0.458
PPVKRRTDLETDH [L7T]: 0.454
PPVKRRLDLETLH [D12L]: 0.181
EPVKRRLDLETDH [P1E]: 0.799
PPVKRRLDLETDK [H13K]: 1.59
PGVKRRLDLETDH [P2G]: 0.435
PPVKRQLDLETDH [R6Q]: 0.243
PPVKIRLDLETDH [R5I]: 0.112
PPVKRRLDLEIDH [T11I]: 0.0939
PPVKRRLDLETTH [D12T]: 0.652
PPWKRRLDLETDH [V3W]: -0.131
PPVERRLDLETDH [K4E]: 0.0149
PPVKRRDDLETDH [L7D]: 0.522
PPVKRRLDLDTDH [E10D]: 1.1
PHVKRRLDLETDH [P2H]: 0.151
PPVKLRLDLETDH [R5L]: 0.601
PPVKRRLDLETDW [H13W]: 0.615
PPVKRRLDLESDH [T11S]: 0.673

Study 3 — technique: universal PBM; molecule type: double-stranded DNA, one strand shown; sample: in vitro; concentration: not given; direction: higher = stronger binding; measurement: E-score
Target: Sal-like protein 4, full length isoform B (SALL4, Homo sapiens, UniProt Q9UJQ4-2, residues 1-616)
Notes: 8-mer, flanks averaged, mean of replicates
Target sequence (chain): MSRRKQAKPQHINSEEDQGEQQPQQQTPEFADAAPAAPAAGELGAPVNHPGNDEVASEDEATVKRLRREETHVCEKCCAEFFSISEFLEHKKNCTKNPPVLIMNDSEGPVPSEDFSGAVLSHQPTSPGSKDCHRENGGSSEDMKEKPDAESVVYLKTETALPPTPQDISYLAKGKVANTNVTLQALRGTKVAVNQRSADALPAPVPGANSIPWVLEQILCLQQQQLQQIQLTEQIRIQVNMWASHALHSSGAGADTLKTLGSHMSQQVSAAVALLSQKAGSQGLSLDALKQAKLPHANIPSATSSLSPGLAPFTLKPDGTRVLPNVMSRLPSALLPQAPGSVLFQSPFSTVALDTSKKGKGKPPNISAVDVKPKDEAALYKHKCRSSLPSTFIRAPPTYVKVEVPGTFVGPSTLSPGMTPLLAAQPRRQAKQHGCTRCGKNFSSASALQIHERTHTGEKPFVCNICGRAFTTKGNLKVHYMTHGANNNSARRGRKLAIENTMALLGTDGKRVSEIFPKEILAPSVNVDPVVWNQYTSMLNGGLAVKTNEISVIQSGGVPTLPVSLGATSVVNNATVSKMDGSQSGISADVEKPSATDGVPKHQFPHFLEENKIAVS
GCTGGATA: 0.123
GACCAGAA: -0.00205
ATTTCGGA: 0.261
ACGAGCCA: -0.122
ACATTCGT: 0.203
AGAGACCT: -0.0718
CGCCGCTC: -0.365
AAACTGAC: -0.116
CGGATCGC: -0.188
ACCGGCGA: -0.33
ATCCGAGG: -0.161
ACGCCGTC: -0.208
AGTTCGCC: -0.0361
AAGCGGAA: 0.00156
ACTCAAAT: 0.187
ACAAAAAT: 0.365
AGACTAGA: -0.0263
ACGGAAAG: -0.0165

Study 4 — technique: RNA Bind-n-Seq; molecule type: RNA; sample: in vitro; concentration: 365 nM; reference: no-protein control; direction: higher = stronger binding; measurement: RBNS enrichment (R)
Target: RNA binding protein fox-1 homolog 2, RRM domain, GST-SBP tag (RBFOX2, Homo sapiens, UniProt O43251-10, residues 100-194)
Notes: natural RNA segment, single round, ends assumed
All sequences stand within: GGGAGUUCUACAGUCCGACGAUC … UGGAAUUCUCGGGUGCCAA
Construct (chain): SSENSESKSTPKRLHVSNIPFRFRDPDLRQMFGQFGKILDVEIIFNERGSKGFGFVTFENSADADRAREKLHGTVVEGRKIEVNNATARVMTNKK
CUGAGGACACUGGUGGCUGUGCUAUGUGUGGCCAUCCUCCAUGUCCCGUCCCUGUAGCUGCUCUGUUUAGACAGCGGACAGACGCUCACGCCCAGGGGAUGUCCUCACGC: 0.527
UGUAUUUUAUUUUGAAAUAAACAUCAUUGCCUAAUUGCUCUACCCUAAAAUAGAAUCAUUGCUUUUUGUGUUUCUCAUCCCAACCUUGAAGUUGUCAUGUCAUCCUUUUC: 0.922
AUGGAUCUAUAUAACCAAUGAGUUGAUUCUCUUAAAAAAAUAAUAAACCCCCCUCUAUUAUGUGGGCCUAUGUACAAAUGUGGGUAUCCGCUGGUUUUGUUGUCUACGGG: 0.589
UAACCCACUUCUCUCCCAUCUUCUCCGAGCCAUGACUCAAGAAGAAAAGGGUGCUCGGACUCUCUUAUACACAUGUGCUUUGUGUAAAUAAAUGUUUACAAUUUUAUAUU: 0.986
UAAAUAUUAAGGAGAAUUCAUGACUCUUGACAGCUUUUCUCUCUUCACUCCCCAAGUCAAGGGGAGGGGUGGCAGGGGUCUGUUUCCUGGAAGUCAGGCUCAUCUGGCCU: 0.182
UACACUUUUUUGGUCUGUUUUUGUGCUAGACUGUAAGUUCCUUGGGGGCAGGGCCUUUGUCUGUCUCAUCUCUGUAUUCCCAAAUGCCUAACAGUACAGAGCCAUGACUC: 0.417
CACAAAUCUGUCUUUCAUACCACUCUAUCUGCCAUUCAUUCUUGUUAAAUGAGGCAUUGUUUUCUUUAUUUAAGAUUGAGUUAUGACUUUAAAUGUUUAUGAGCUAGUUU: 0.328
UGUAUGUCCUGUGCCUUUUCUCACUAUUGUUUGGGUGUGGGAGGGGGUGGUUUUUCACUGAAAAGGGGGGUACACCUAUAGCUUUCUUGAUGUUCAAUCAAUCAGUCACU: 0.674
UGAAUGUCACUCUCCACUGCUGCAGCAGUAAAUCUCUCAGUAAAAGAAGACCCUCUCCCUCAGGGGACUGUCACCUCAGUCCUCGGUAGUUCUGUAAUUUAUUGAACAUU: 0.361
CUGCUUCACCCUCACCACCACCACUUCCAAGGAUCAAAGCUGUCUACAGCUCCAUCAAAACCUUUCAUUCACUGCCAAUGAGGAGCACUUUCUUUCUGUAGCAUAGCUUC: 0.657
AGGGGACAAGACCUCCAGGAGGCCCUGUGGAGUCUCUGGUGAGGUGUGCGAUGGCAGAGCAGCAUCCAAGCAGAGAUCAGAUGUCCUCUUCAGUCUGUGGGCGGGCGAUU: 1.46
GUGUGCACUUCCUCGGAGAGCCUUGGGCUGCCACGUCCACCCCGGGCUCUGCCCGUCCUGUUCUGCCCAUGGCCCAGCCCGGCCGCUCCUGCUGACCCCUCCUGGACGGG: 0.339

Study 5 — technique: RNAcompete; molecule type: RNA; sample: in vitro; concentration: 20 nM; notes: 7-mer, probes averaged, single round; reference: mean of 7-mers; direction: higher = stronger binding; measurement: 7-mer Z-score
Target: PABPC1L2, full length, GST fusion (mouse, UniProt A0ABA7IW68)
Target sequence (chain): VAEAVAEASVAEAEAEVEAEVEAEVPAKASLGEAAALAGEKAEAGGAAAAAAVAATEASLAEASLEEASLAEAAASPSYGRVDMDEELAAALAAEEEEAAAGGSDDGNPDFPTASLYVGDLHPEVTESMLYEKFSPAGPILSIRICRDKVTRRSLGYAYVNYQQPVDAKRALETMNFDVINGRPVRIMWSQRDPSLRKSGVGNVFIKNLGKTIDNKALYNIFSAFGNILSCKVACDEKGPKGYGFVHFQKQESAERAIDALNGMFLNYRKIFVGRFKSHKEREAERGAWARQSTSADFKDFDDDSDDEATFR
GCACUGU: -0.142
UCGAGCG: -0.242
CGAGUUC: -0.311
CGAGAGG: -0.0246
UAUCUCG: -0.298
GCAGGUU: -0.0554
ACUCGUC: -0.418
CGUGGCC: 0.0533
ACAGCAG: 0.323
UAGGAGA: 0.109
GGAGGGG: 0.318
UGUUGUA: -0.345
AUGACGG: 0.128
GCACCGG: -0.0337
GCGCCUC: -0.233
GCUGGGG: 0.106
UAAAAUG: 2.39

Study 6 — technique: DHFR PCA, deep sequencing; sample: yeast; added: (+)-ABA 2500 µM; reference: wild-type fitted maximum; direction: higher = stronger binding; measurement: relative binding score
Target: ABI1, truncated, D143A, DHFR fusion (Arabidopsis thaliana)
Notes: methotrexate growth selection, single substitutions
Starting sequence: PYL1, truncated, DHFR fusion (Arabidopsis thaliana); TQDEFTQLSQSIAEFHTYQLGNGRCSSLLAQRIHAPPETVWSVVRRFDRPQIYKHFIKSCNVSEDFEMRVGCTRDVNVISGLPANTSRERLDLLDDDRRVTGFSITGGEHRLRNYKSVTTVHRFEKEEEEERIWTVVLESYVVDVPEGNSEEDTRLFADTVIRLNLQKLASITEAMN; partner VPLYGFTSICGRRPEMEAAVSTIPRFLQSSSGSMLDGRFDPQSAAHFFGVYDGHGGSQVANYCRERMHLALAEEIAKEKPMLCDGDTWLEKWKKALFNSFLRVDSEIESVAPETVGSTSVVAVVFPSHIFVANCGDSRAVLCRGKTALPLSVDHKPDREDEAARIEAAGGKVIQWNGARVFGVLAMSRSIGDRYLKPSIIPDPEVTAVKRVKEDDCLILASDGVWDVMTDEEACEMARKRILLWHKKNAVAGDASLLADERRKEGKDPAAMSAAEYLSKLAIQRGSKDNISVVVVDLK
F5D: 93.9%
D96Q: 90.8%
L164C: 102%
Y53T: 67.1%
V143R: -6.14%
G107P: 69.3%
K126C: 100%
N165I: 2.77%
V62D: 65.1%
G148L: 89.4%
S171C: 94.7%
T135Y: -2.06%

Excerpt of the above (study 3):
GACCAGAA: -0.00205
ATTTCGGA: 0.261
ACGAGCCA: -0.122
ACATTCGT: 0.203
AGAGACCT: -0.0718
CGCCGCTC: -0.365
AAACTGAC: -0.116
CGGATCGC: -0.188
ACCGGCGA: -0.33
ATCCGAGG: -0.161
ACGCCGTC: -0.208
AGTTCGCC: -0.0361
